{"data": "Experimental data pooled from the literature", "target": "Serine/threonine-protein kinase WNK4 (WNK4, Homo sapiens, UniProt Q96J92)"}
{"SMILES": "C=CC(=O)N1CCCC(n2c(=O)c3ncccc3n(Cc3ccc(Oc4ccccc4)cc3)c2=O)C1 (stereo not shown)", "test": "cell-free assay, competition with immobilised ligand", "conditions": "1 µM", "measurement": "remaining binding", "value": "66%"}
{"SMILES": "Cc1cnc2nc1Nc1cccc(c1)COC/C=C/COCc1cc(ccc1OCCN1CCOCC1)N2", "test": "binding, competition with immobilised ligand", "conditions": "0.1 µM", "measurement": "remaining binding", "value": "95%"}
{"SMILES": "CCN1CCN(Cc2ccc(NC(=O)c3ccc(C)c(NC(=O)c4cncc(-c5cnn(C)c5)c4)c3)cc2C(F)(F)F)CC1", "test": "binding, competition with immobilised ligand", "conditions": "1 µM", "measurement": "remaining binding", "value": "100%"}
{"SMILES": "COc1cc(Nc2nccc(-c3cnn4nc(OC)ccc34)n2)cc(C(F)(F)F)c1", "test": "binding, competition with immobilised ligand", "conditions": "1 µM", "measurement": "remaining binding", "value": "100%"}
{"SMILES": "O=C(Cc1ccc(OCc2ccccc2)cc1)NC1(C(=O)O)CCN(C(=O)c2ccc(-c3cccc(Cl)c3)cc2)CC1", "test": "enzyme activity, inhibitor", "conditions": "10 µM", "measurement": "activity vs control", "value": "82%"}
{"SMILES": "CC(C)=CC1OC(C)(C)C2C=C3C(=O)C(Cl)=CC(O)C3C3C(O)C4OC4C(=O)C132 (stereo not shown)", "test": "cell-free assay, competition with immobilised ligand", "conditions": "10 µM", "measurement": "remaining binding", "value": "87%"}
{"SMILES": "Nc1ncc2c(n1)-c1c([nH]c3ccc(C4=CCOCC4)cc13)CCC2", "test": "binding, competition with immobilised ligand", "conditions": "1 µM", "measurement": "remaining binding", "value": "100%"}
{"SMILES": "COc1c(Cl)cccc1Nc1c(-c2ccncc2C#C[C@@]2(C)CCCN2C(=O)/C=C/CN(C)C)[nH]c2c1C(=O)NCC2", "test": "binding, competition with immobilised ligand", "conditions": "3 µM", "measurement": "remaining binding", "value": "75%"}
{"SMILES": "COc1cc(Nc2nc(C)cc(-c3cnn4nc(OC)ccc34)n2)cc(C(F)(F)F)c1", "test": "binding, competition with immobilised ligand", "conditions": "1 µM", "measurement": "remaining binding", "value": "100%"}
{"SMILES": "CNC(=O)C1CCN(c2cc(C)c(F)cc2NC(=O)c2ccc(-c3cc(O)ccc3C)c(C)c2)CC1", "test": "binding, competition with immobilised ligand", "conditions": "1 µM", "measurement": "remaining binding", "value": "100%"}
{"note": "A few entries again:"}
{"SMILES": "CNC(=O)C1CCN(c2cc(C)c(F)cc2NC(=O)c2ccc(-c3cc(O)ccc3C)c(C)c2)CC1", "test": "binding, competition with immobilised ligand", "conditions": "1 µM", "measurement": "remaining binding", "value": "100%"}
